Measurements of several laboratories.
Compare with care: the assays were run in different laboratories. Several values in a cell are separate wells, animals, samples, runs or records. ± marks the error that the study gave. ≈ marks a conversion by molar mass, not a printed value.

CSCC[C@@H]1NC(=O)[C@H](CC(=O)O)NC(=O)CNC(=O)[C@H](CCCNC(=N)N)NC(=O)[C@H](C)NC(=O)[C@H](CCC(=O)O)NC(=O)[C@H](CCCNC(=N)N)NC(=O)[C@@H]2CSSC[C@@H]3NC(=O)[C@H](CO)NC(=O)[C@H]([C@@H](C)O)NC(=O)[C@@H]4CCCN4C(=O)[C@H](C)NC(=O)[C@H](Cc4c[nH]c5ccccc45)NC(=O)[C@H](CC(=O)O)NC(=O)CNC(=O)[C@H](CCCNC(=N)N)NC(=O)CNC(=O)[C@H](CCC(N)=O)NC(=O)[C@@H]4CCCN4C(=O)[C@@H](NC(=O)CNC(=O)C(C)F)CSSC[C@H](NC(=O)CNC(=O)[C@H](C)NC(=O)[C@H](CC(C)C)NC(=O)[C@H](CSSC[C@@H](C(=O)NCC(N)=O)NC(=O)[C@H]([C@@H](C)O)NC(=O)[C@H](CCCNC(=N)N)NC(=O)[C@@H]4CCCN4C1=O)NC(=O)[C@H](CC(=O)O)NC(=O)[C@H](CO)NC(=O)[C@H](CC(=O)O)NC(=O)[C@H](CCC(N)=O)NC(=O)[C@H](CO)NC3=O)C(=O)N[C@@H](C(C)C)C(=O)N2 (some centres unmarked) [fluorine-18 labelled]  intact fraction (radio-HPLC; mouse serum; 1 h, 37 °C): > 95%
CNC(=O)c1ccc(-c2cnn3ccc(C(=O)N(C)c4ccc(Cl)c(C(=O)OC)c4)cc23)cc1  AUC(0-8 h) (beagle dogs, both sexes, plasma; oral, 15 mg/kg/day, day 14, 2-week toxicology study): 0.0678 µg·h/mL
COc1ccc(C[C@@H]2NC(=O)[C@H]([C@@H](C)O)NC(=O)[C@@H]3[C@@H]4CCN3C(=O)[C@@H]3Cc5cn(c6ccc(F)cc56)CCCCCCN(Cc5ccc(cc5)CCNC(=O)[C@]5(C)CCCN5C2=O)C(=O)CCC(=O)N[C@@H](C)C(=O)N[C@H](CNC(=O)CCCCC[N+](C)(C)C)C(=O)N[C@@H](Cc2cccc(c2)CNC(=O)CO4)C(=O)N3)cc1  AUC(0-inf) (fasted healthy humans, plasma; oral, 200 mg single dose, with 1800 mg Labrasol, geometric mean): 1.26 µM·h
O=c1[nH]c(Cc2ccccn2)nc2c1cnn2C1CCOCC1  AUC(0-inf) (healthy men, extensive metabolizers, plasma; oral, 10 mg single dose, tablet, geometric mean): 0.0959 µM·h
O=C(CC(=O)c1ccccc1)c1ccccc1  Cmax (male C57BL/6J mice, Nrf2 wild type, plasma; po, 500 mg/kg): 77.5 µM
c1ccc(-c2nc(N3CCC(c4ccccn4)C3)c3ccccc3n2)nc1 (centres unmarked)  maximum tolerated dose (Balb/c mouse, female; oral, up to 5 days, twice daily): ≤ 100 mg/kg/dose
CC[C@H](NC(=O)CCC(=O)O)C(=O)N[C@H](C(=O)N[C@@H](CC(C)C)C(=O)N[C@@H](CCC(N)=O)C(=O)Nc1ccc2c(C)cc(=O)oc2c1)C(C)(C)C  solubility (shake-flask HPLC; 1 h, pH 7.2, 37 °C, 5% DMSO, 0.01% Triton X-100): 6.21 ± 0.18 mM (≈ 4440 µg/mL)
CC(C)(NC(=O)O[C@@H]1CN2CCC1CC2)c1csc(-c2ccc(F)cc2)n1  CSF concentration (human, CSF; oral, 15 mg once daily, week 52, with: imiglucerase): not detected
O[C@H]1CCCN[C@@H]1CCCn1cnc2c(Cl)c(Cl)ccc21  Vd/F (human, plasma; oral, 600 mg, single dose, healthy volunteers): 4460 L
CCCCCOc1ccc(-c2ccc(-c3ccc(C(=O)N[C@H]4C[C@@H](O)[C@@H](O)NC(=O)[C@@H]5[C@@H](O)[C@@H](C)CN5C(=O)[C@H]([C@@H](C)O)NC(=O)[C@H]([C@H](O)[C@@H](O)c5ccc(O)cc5)NC(=O)[C@@H]5C[C@@H](O)CN5C(=O)[C@H]([C@@H](C)O)NC4=O)cc3)cc2)cc1  peak blood bilirubin (human; concentration not given): 11.5 mg/dL
CC(=O)N[C@H](CCCCNC(=O)C(C)F)C(=O)N[C@@H](CS)C(=O)N[C@@H](CS)C(=O)N[C@@H](CCC(=O)O)C(=O)N[C@@H](Cc1c[nH]cn1)C(=O)N[C@H](Cc1ccccc1)C(=O)N[C@@H](CCCNC(=N)N)C(=O)N[C@@H](Cc1c[nH]c2ccccc12)C(=O)N[C@@H](CS)C(=O)N[C@@H](CCCNC(=N)N)C(=O)N1CCC[C@H]1C(=O)N[C@H](C(N)=O)C(C)C (some centres unmarked) [fluorine-18 labelled]  tissue uptake (nude mice, A375M xenograft, spleen; intravenous, 2 h): 0.34 ± 0.19 %ID/g
Cn1nccc1Nc1nc(NCC(F)(F)F)c2nc[nH]c2n1  Tmax (NMRI mouse, female, uninfected, blood; intraperitoneal, 10 mg/kg): 0.25 to 0.5 h
CC(C)C[C@@H]1NC(=O)[C@@H](NC(=O)CN)CSSC[C@@H]2NC(=O)[C@@H]3CSSC[C@@H](C(=O)N[C@@H](CC(N)=O)C(=O)N[C@@H](Cc4ccccc4)C(=O)N[C@@H](CO)C(=O)N[C@@H](Cc4ccccc4)C(N)=O)NC(=O)[C@H](CC(C)C)NC(=O)[C@H](CCCCN)NC(=O)[C@H](Cc4ccccc4)NC(=O)[C@H](CC(C)C)NC(=O)[C@H](CCCCN)NC(=O)[C@H](CO)NC(=O)[C@H](CSSC[C@H](NC(=O)[C@H](CCCCN)NC(=O)[C@H](Cc4c[nH]c5ccccc45)NC(=O)[C@H](Cc4c[nH]c5ccccc45)NC(=O)[C@H](Cc4ccccc4)NC(=O)[C@H](CCC(=O)O)NC1=O)C(=O)N[C@@H](CC(N)=O)C(=O)N1CCC[C@H]1C(=O)N[C@@H](CC(N)=O)C(=O)N[C@@H](CC(=O)O)C(=O)N[C@@H](CC(=O)O)C(=O)N[C@@H](CCCCN)C(=O)N3)NC(=O)[C@H](CCCCN)NC(=O)[C@H](CC(C)C)NC(=O)[C@H](CCCCN)NC(=O)[C@@H]1CCCN1C(=O)[C@H](CCCNC(=N)N)NC2=O  free fraction (ultrafiltration, HPLC; saline without serum; 50 µM, 10 min): 30%
CC(=O)O[C@H]1C(=O)[C@@]2(C)[C@H]([C@H](OC(=O)c3ccccc3)[C@]3(O)C[C@H](OC(=O)[C@H](O)[C@@H](NC(=O)c4ccccc4)c4ccccc4)C(C)=C1C3(C)C)[C@]1(OC(C)=O)CO[C@@H]1C[C@@H]2O  AST (BALB/c mouse, serum; intraperitoneal, 10 mg/kg every three days, 60 days): 4.42 mmol/L and 6.06 mmol/L and 8.33 mmol/L
Cc1cc(C(C#N)c2ccc(Cl)cc2)c(Cl)cc1NC(=O)c1cc(I)cc(I)c1O (centres unmarked)  AUC(0-LOQ) (parasitized lambs, plasma; oral, 10 mg/kg, with: moxidectin 0.2 mg/kg oral): 28600 ± 4820 µg·h/mL
CCNc1nc(Cl)nc(NC(C)C)n1  remaining amount (LC-MS/MS; herbicide solution; 2 h, 4 °C, with: 365 nm UV exposure): 25.8 ± 11.1%
[123I]c1cncc(OC[C@@H]2CCN2)c1  tissue/plasma ratio (SPECT; human, parietal lobe; intravenous bolus, 2.1 mCi; reference: tissue over plasma): 10.8
CN1CCC(Nc2ncc3ncnc(Nc4ccc(F)c(Cl)c4)c3n2)CC1  CLint (guinea pig Hartley male, hepatic S9; 1 µM, pH 7.4, with: without NADPH): 50.4 ± 1.13 mL/min/kg
O=c1[nH]c(=O)[nH]c(=O)[nH]1  serum concentration (LC-MS/MS; non-pregnant female rat, serum; oral, 1000 mg/kg/day, 10 days): 3500 ng/mL and 5400 ng/mL and 2300 ng/mL and 11600 ng/mL and 5200 ng/mL
CN[C@@](C)(C[18F])C(=O)O  tissue uptake (SCID mouse A549 xenograft, pancreas; 60 min, post injection): 31 ± 7.6 %ID/g
CC[C@@]1(O)C(=O)OCc2c1cc1n(c2=O)Cc2cc3c(CN(C)C)c(O)ccc3nc2-1  Tmax (human patients; oral, 8 mg weekly, day 1, median, alone): 1.78 h
Oc1ccc2ccc3cccc4ccc1c2c34  tissue concentration (HPLC-fluorescence; Wistar rat, male, ileum; oral, 4 mg/kg PY, 24 h): 10700 ± 1000 ng/g
CC[C@H](C)[C@H](NC(=O)[C@@H](N)CCCNC(=N)N)C(=O)N[C@H](C(=O)N1CCC[C@H]1C(=O)N[C@@H](C)C(N)=O)C(C)C  AUC(0-t) (human, plasma; intravenous, 2 mg/kg, single dose, healthy volunteers): 0.491 µg·h/mL

A few entries again:
CC[C@@]1(O)C(=O)OCc2c1cc1n(c2=O)Cc2cc3c(CN(C)C)c(O)ccc3nc2-1  Tmax (human patients; oral, 8 mg weekly, day 1, median, alone): 1.78 h
Oc1ccc2ccc3cccc4ccc1c2c34  tissue concentration (HPLC-fluorescence; Wistar rat, male, ileum; oral, 4 mg/kg PY, 24 h): 10700 ± 1000 ng/g
CC[C@H](C)[C@H](NC(=O)[C@@H](N)CCCNC(=N)N)C(=O)N[C@H](C(=O)N1CCC[C@H]1C(=O)N[C@@H](C)C(N)=O)C(C)C  AUC(0-t) (human, plasma; intravenous, 2 mg/kg, single dose, healthy volunteers): 0.491 µg·h/mL
